Assay results pooled from the literature.
Each numbered part is a random draw from the data of one study; scales do not carry over between parts. Positions count from the first letter of the parent shown.

Block 1
Target: Interferon regulatory factor 5, full length, phosphomimetic (IRF5, Homo sapiens, UniProt Q13568-2, residues 1-514, K96S/S451D/S453D/S456D/S462D)
Technique: protein-binding microarray
Molecule type: double-stranded DNA, one strand shown
Sample: in vitro
Tested at: 250 nM
Notes: 60-bp whole probe
Added: salmon DNA 0.4 mg/ml
Relative to: random background probes
Reading: higher = stronger binding
Shared flanks, not repeated: GCCTAGCAC … GTCTTGATTCGCTTGACGCTGCTG
Oligonucleotide | log fluorescence
CTAGGACTGGGGTATCGGTTAGTGCTA | 1.84 z-score
GACGTTTTCCTTCTCCTGACGTGCTAG | 0.833 z-score
ACAAAGATTTTTATCAAATGGTGCTAG | 0.461 z-score
TCAGTTTGCCCTATTTAACTGTGCTAG | 0.383 z-score
TTAGGTTTCGGGTATCAGTTAGTGCTA | 9.32 z-score
GAAGGTTTCGGGTTTCGGGACGTGCTA | 7.58 z-score
CTCTGTCTAAAATTGTTAAAGTGCTAG | 0.255 z-score
TTAGGTATCGGTCTCGGATAGTGCTAG | 6.77 z-score
GACGATCTCAATATCGAGACGTGCTAG | 0.714 z-score
TCAGGTTTCTGGTTTATACTGTGCTAG | 1.97 z-score
TTAGGTTCCGGTTTGGGTTAGTGCTAG | 1.53 z-score
CTAATTTTCATTTTCCAAATGTGCTAG | 3.09 z-score
GACGGTTTTGGTTTCGGGACGTGCTAG | 7.08 z-score
TCATTTTTCACTATTGCACTGTGCTAG | 2.45 z-score
TTAGATATCAGTTTCCATTAGTGCTAG | 3.22 z-score
TCACTACTGCATTTTTTACTGTGCTAG | 0.72 z-score
TCATTTTTTTTTTGGAAACTGTGCTAG | 0.935 z-score

Block 2
Target: CCNA2, cyclin fold, Cln2 fusion (human)
Technique: yeast growth competition, sequencing
Sample: yeast
Notes: strong parent motif
Relative to: not given
Reading: higher = stronger binding
Starting sequence: PKMYT1 docking peptide (human); SFEPRNLLSLFED
Substitution | normalised enrichment score
SFEYRNLLSLFED [P4Y] | -1.65
SFEPRNELSLFED [L7E] | -1.36
SFEPRLLLSLFED [N6L] | -1.16
SFQPRNLLSLFED [E3Q] | 4.04
SFEPRNLLVLFED [S9V] | 2.38
SFEPRNLLSLFEW [D13W] | 1.18
SFEPNNLLSLFED [R5N] | -0.0787
SFEPRNLKSLFED [L8K] | 0.00422
SFEPRNLLSLFEG [D13G] | 2.65
SIEPRNLLSLFED [F2I] | 0.828
SFEPDNLLSLFED [R5D] | -0.239

Block 3
Target: Histone acetyltransferase KAT6A, both winged helices, GST fusion (KAT6A, Homo sapiens, UniProt Q92794, residues 1-181)
Technique: protein binding microarray
Molecule type: double-stranded DNA, one strand shown
Sample: in vitro
Tested at: not given
Notes: 8-mer, flanks averaged, mean of 2 arrays, mostly near background
Relative to: not given
Reading: higher = stronger binding
Target sequence (chain): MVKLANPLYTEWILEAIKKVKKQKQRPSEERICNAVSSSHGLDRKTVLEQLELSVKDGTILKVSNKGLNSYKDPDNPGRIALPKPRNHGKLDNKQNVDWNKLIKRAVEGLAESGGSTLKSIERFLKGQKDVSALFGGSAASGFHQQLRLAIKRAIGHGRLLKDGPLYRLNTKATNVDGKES
Oligonucleotide | E-score
CCCTGTTC | -0.233
CTTTATTA | -0.0854
CGTACAAA | 0.136
AGATCTCC | -0.162
CCATGTCA | -0.0791
AGATAAAG | -0.0931
ATGCACTC | 0.119
AATATCCA | -0.00454
ACACCTGA | -0.0357
CTAAGAGA | -0.218
CCAGCGCA | 0.172
AATCGGGT | 0.103
TCAATCCA | -0.144
ATAATGCA | -0.139
ACTTTTTC | 0.00486
CCATATCC | -0.023

Mixed results
Molecule | target | test | system | setting | scale | quantity | result
PhoQ, residues 284 288 289 292 302 303 NLCILV | PhoP, residues 12 14 15 18 19 NMSFL (Escherichia coli, UniProt P23836) | Sort-seq, measured: YFP reporter | E. coli | PhoQ-PhoP variant library, added: 10 µM Mg2+ | relative to: high Mg2+ state, higher = stronger signaling | fold induction | 10.6

Repeated from above (block 1):
Oligonucleotide | log fluorescence
TTAGGTATCGGTCTCGGATAGTGCTAG | 6.77 z-score
GACGATCTCAATATCGAGACGTGCTAG | 0.714 z-score
TCAGGTTTCTGGTTTATACTGTGCTAG | 1.97 z-score
TTAGGTTCCGGTTTGGGTTAGTGCTAG | 1.53 z-score
